Published values from different studies.
Parts stem from different laboratories: compare values within a part only. Substitutions count along the parent as printed.

Set 1
Target: CCND3, cyclin fold, Cln2 fusion (human)
Technique: yeast growth competition, sequencing
Medium: yeast
Setting: weak parent motif
Baseline: not given
Reading: higher = stronger binding
Parent: PKMYT1 docking peptide (human); SFEPRNLLSLFED; partner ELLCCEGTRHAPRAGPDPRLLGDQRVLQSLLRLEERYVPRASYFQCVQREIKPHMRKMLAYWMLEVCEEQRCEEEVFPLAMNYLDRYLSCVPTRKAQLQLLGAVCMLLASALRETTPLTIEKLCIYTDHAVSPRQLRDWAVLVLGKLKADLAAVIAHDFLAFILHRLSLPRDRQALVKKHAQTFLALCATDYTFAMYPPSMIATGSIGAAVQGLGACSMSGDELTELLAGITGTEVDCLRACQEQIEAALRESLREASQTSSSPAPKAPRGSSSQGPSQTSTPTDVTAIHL
`R5I`: “normalised enrichment score” 0.169.
For `D13N`, “normalised enrichment score” read 0.136.
`R5K F11L` — result for “normalised enrichment score”: -0.291.
Under “normalised enrichment score”, `R5A` is recorded as 0.105.
`E12W`: “normalised enrichment score” 0.0253.
`L8H`: “normalised enrichment score” 0.13.
`L8K` — result for “normalised enrichment score”: 0.201.
`S9K` — result for “normalised enrichment score”: 0.00719.
`E12D` — result for “normalised enrichment score”: 0.14.
Under “normalised enrichment score”, `P4A` is recorded as 0.0796.
For `F2S`, “normalised enrichment score” read 0.035.
Under “normalised enrichment score”, `N6K` is recorded as 0.0758.
`L7I` — result for “normalised enrichment score”: 0.11.
`F11I` — result for “normalised enrichment score”: 0.114.
For `E3F`, “normalised enrichment score” read 0.116.
`E3H`: “normalised enrichment score” 0.128.

Set 2
Target: Ras GTPase-activating protein-binding protein 1, full length (G3BP1, Homo sapiens, UniProt Q13283)
Chain of UniProt Q13283 (whole entry, looked up): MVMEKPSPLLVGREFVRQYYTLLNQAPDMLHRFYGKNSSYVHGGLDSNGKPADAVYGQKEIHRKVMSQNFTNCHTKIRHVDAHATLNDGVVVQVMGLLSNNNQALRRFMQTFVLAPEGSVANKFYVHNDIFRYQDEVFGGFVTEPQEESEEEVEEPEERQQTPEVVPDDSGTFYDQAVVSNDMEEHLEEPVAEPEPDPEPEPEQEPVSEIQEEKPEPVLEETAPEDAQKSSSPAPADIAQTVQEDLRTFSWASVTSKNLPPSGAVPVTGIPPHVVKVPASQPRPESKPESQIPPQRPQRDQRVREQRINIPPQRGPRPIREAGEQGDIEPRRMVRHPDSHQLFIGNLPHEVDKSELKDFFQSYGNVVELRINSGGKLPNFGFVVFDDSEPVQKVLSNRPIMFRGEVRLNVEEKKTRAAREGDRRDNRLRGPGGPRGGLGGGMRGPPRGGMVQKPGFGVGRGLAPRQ
Technique: RNA Bind-n-Seq
Molecule type: RNA
Medium: in vitro
Concentration: 200 nM
Setting: whole 134-nt RNA, ends assumed
Together with: 150 mM KCl
Baseline: input library
Reading: higher = stronger binding
Constant ends, left off below: GGGAGUUCUACAGUCCGACGAUC … UGGAAUUCUCGGGUGUCAAGG
With `GCAGGAAGUAAAAACAAAUGGAAAUGCUUCGGAUAGUGGCAGGGGUGGGGGUUGCUAAGGAAAAAGUGGGAUGGGAGUGGGUAAAGAGUU` the log2 enrichment was 0.845.
The log2 enrichment of `UGGGAGGUGGAUUUUGUUUAUUUUUUUAGCUCAUUUCCAGGGGUGGGAAUUUUUUUUUAAUAUGUUUCAUGAAUAAAGUUGUUUUUGAAA` is reported as -0.0876.
`CUGUGCUACACAUCGUAUGUACCGAAUCGGGUUUUUUUGGGAAAAAAAGGGAAAAAAAGGGAAAGUAUUAUGUUACGCCGUUCGGAUCUG` gave a log2 enrichment of -1.38.
`UGGCCCUGGUGGCAUGCGGGGAGGAAGAGGUGGCCUCAUGGAUCGUGUUGGUCCCGGUGGAAUGUUCAGAGGUGGCCGUGGUGGAGACAG` gave a log2 enrichment of 0.0577.
With `ACCAUGCAGGUGGGCAUCUUUGGGAAGUGAGGCAAGGGGGGGAUAGGGAGGGGGGUAACACUUUGGGAACAGGUGGUCCCAGGUCGUUUC` the log2 enrichment was 1.75.
With `AGUCCUGUGCUACACAUCGUAUGUACCGAAUCGGGGUGGGGUUUUUUUGGGGUGGGGAAAGUAUUAUGUUACGCCGUUCGGAUCUGCACU` the log2 enrichment was 0.639.
`GAGGAGAUAAUCUCGGAAAAGUUACGGAAACCUGGGAAGUCGGCGAAACCCUACGUUCGGGUGUUUUCGGAAGCAGCCGAAGCGGCCGCC` has a log2 enrichment of -0.762.
For `AGUCCUGUGCUACACAUCGUAUGUACCGAAUCGGGUUUUGGGUUUUGGGGUUUUGGGAAAGUAUUAUGUUACGCCGUUCGGAUCUGCACU`, the log2 enrichment was -0.12.
With `GGAUUGGUAGCUUAUGUCGAUCUUGAUGAAAGAGCAAUUGAUGCUCUCAGGGAAUUUAAUGAAGAAGGAGCUCUGUCUGUACUACAGCAG` the log2 enrichment was -1.7.
For `UAACUUUAGAGGAGGAUCUGAUGGAUAUGGCAGUGGACGUGGAUUUGGGGUUGGCUAUAAUGGGUAUGGAGGAGGACCUGGAGGUGGCAA`, the log2 enrichment was 0.268.

Set 3
Target: RNA binding protein fox-1 homolog 2, RRM domain, GST-SBP tag (RBFOX2, Homo sapiens, UniProt O43251-10, residues 100-194)
Technique: RNA Bind-n-Seq
Molecule type: RNA
Medium: in vitro
Concentration: 365 nM
Setting: natural RNA segment, single round, ends assumed
Baseline: no-protein control
Reading: higher = stronger binding
Constant ends, left off below: GGGAGUUCUACAGUCCGACGAUC … UGGAAUUCUCGGGUGCCAA
Residues (chain): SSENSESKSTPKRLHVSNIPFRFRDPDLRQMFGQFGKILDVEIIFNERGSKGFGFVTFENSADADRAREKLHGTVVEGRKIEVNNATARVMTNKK
`UGACGCCCACCCCACGCUCUUUGCGAGGUUGUCCAGGCUGUGUUUGUCGCAUGCUCUUCUUCUGUAUAGUUCUCAUCUUCCAAUUUUAUGGGAUUCAACAAAAGCCUAUU` — result for “RBNS enrichment (R)”: 4.97.
`CAUUGAUGUCUAAGAGGGGCCGUGGUAAUAGAUUGCAUCUGCCCUGUGCAUGCGCAUGUUUAACCACAGGCCAGAGAACUCAAUUCUGAUGUCGUAAGUUCUCUGUAAGU` — result for “RBNS enrichment (R)”: 0.817.
`AAGAAAAUGAGGAGAACACUUUGUAUUUACCCCAAAAUCUUUUCAGUUGUGGGUUUGUAGGUGCGAGUUUGAAGAGGAAAAGAGGAAGGGGGUUAUAUUUCUAAGUGAUU` — result for “RBNS enrichment (R)”: 2.36.
`GCCCCAGGGUGGCUGCCUCGGCCCUCCCAGCUCUUACACUCAGCUCCAGUGGCUUCUCCUUUCUGUCAAGACUUAGCCCCGCUGAGAUGCCCUUCUGCUCCAGCUUGCUG` — result for “RBNS enrichment (R)”: 0.863.
For `ACUGUUAAAGAUGUCAAGCCUAAAAAGUAAUAAAGUUUUUAUUUGGCUGUUGAACCUUGAUGUAGCCCCUACUACAUACACUACAAGUUAUGCCUUCUGGCUACUACAGA`, “RBNS enrichment (R)” read 0.306.
For `AGAUCUGAUGCAGUCAUCUGUGUCCCCCAACCAAAGCCCAUUUGGGUCUGAGGGUUCCAGCGUAAAUGCCUGCCCUGCAGCGCCUGGCAACUGGCAAGCAUCGGGUCUGA`, “RBNS enrichment (R)” read 0.269.
For `UCACCCCAGAAGGAAAAGAGGGGAUAGGGAAAACAAAAGAUUAUGCAAGCCCCCAGCCCUUCCUGAAGCCCGUGCUCUGCCCAGCACUCGGAUGCUGCUCUUUUCUUGCU`, “RBNS enrichment (R)” read 1.22.
`GAGCAGGUUACAAUGUUACUUCAGCCCACAGUUUAUUUCUAUACUUGAGUUCUUAAGUACAGAAGAUAGAAGUGAUUUAAAUGGCAUAGUAUAUAUAUCAUUUUCUGGCC`: “RBNS enrichment (R)” 0.271.
`AGAUGAAUGGUUAACACGAGCUAGUUAAACAGUGCCAUUGUUUUGCCAGUGAAGCCUCCAACCCUAAGCCACUGGGACGGUGGCCAGAGAUGCCAGCAGCCUCUGUCGCC`: “RBNS enrichment (R)” 0.428.
`CAGAACUCAUAAGAGUGACAUAGUCAGCUGCUGACGGCACCUCAGCCACGCCACUCUUACUCAGUUCAGUGGGUGUGCUUGCGUGGUAGGAUGUGGUGCAGCCCUCUCUA` — result for “RBNS enrichment (R)”: 0.285.
`AGGGUUGCCAAUAGAACACUGUGUCCCAGCUGCCCCCAACUUGCCAGAAGAACCAGCACUUACUUCUUUCUCUAGUUCUUAUGUUCAGAAUGUGGUAUUGGCCCUGGCCU`: “RBNS enrichment (R)” 0.749.
For `AGCAAAAUCACCCUCUGGCCCCUUGGCAGGUAAGGCCUCCCGGUCAGCAUUAUCCUGCCAGACCUCGGGGAGGAUACCUGGGAGACAGAAGCCUCUGCACCUACUGUGCA`, “RBNS enrichment (R)” read 1.04.

Set 4
Target: Histone acetyltransferase KAT6A, both winged helices, GST fusion (KAT6A, Homo sapiens, UniProt Q92794, residues 1-181)
Technique: protein binding microarray
Molecule type: double-stranded DNA, one strand shown
Medium: in vitro
Concentration: not given
Setting: 8-mer, flanks averaged, mean of 2 arrays, mostly near background
Baseline: not given
Reading: higher = stronger binding
Construct (chain): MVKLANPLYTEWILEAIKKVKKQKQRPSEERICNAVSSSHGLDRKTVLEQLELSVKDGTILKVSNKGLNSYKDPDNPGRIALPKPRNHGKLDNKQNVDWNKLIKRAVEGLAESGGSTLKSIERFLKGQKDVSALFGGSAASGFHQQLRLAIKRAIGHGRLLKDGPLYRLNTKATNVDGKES
`AGATCAAT` gave an E-score of -0.151.
For `AGCTGATG`, the E-score was -0.0569.
`AATTACTA` gave an E-score of 0.0404.
With `CTCCTTTA` the E-score was -0.0581.
With `ACTTATGA` the E-score was -0.199.
The E-score of `AGTCCGGG` is reported as 0.1.
`GCACCACC` gave an E-score of -0.0153.
With `CCCGACTC` the E-score was 0.0439.
With `ATCATTGG` the E-score was -0.321.
`CGATAGAA` has an E-score of 0.00136.
`GGGCGCGA` gave an E-score of 0.205.
With `GGCGAAGA` the E-score was 0.0683.
`CAGTCCGC` gave an E-score of 0.137.
`GGACCGGA` gave an E-score of 0.132.
For `CAACGCTC`, the E-score was -0.0473.
`ACCGTCTG` gave an E-score of 0.151.
With `AAATGAAC` the E-score was -0.135.
`CTGGAAAG` has an E-score of -0.259.
For `GTATACAA`, the E-score was 0.0184.
The E-score of `TGCCGCCA` is reported as 0.242.
`AAACGAGA` has an E-score of 0.01.
The E-score of `CGTGCGGA` is reported as 0.179.
For `GGGCCACA`, the E-score was -0.126.
`CCTGAGGC` gave an E-score of -0.0366.
With `GGAGTACC` the E-score was -0.0121.

For quick reference, copied from above (set 2):
The log2 enrichment of `UGGGAGGUGGAUUUUGUUUAUUUUUUUAGCUCAUUUCCAGGGGUGGGAAUUUUUUUUUAAUAUGUUUCAUGAAUAAAGUUGUUUUUGAAA` is reported as -0.0876.
`CUGUGCUACACAUCGUAUGUACCGAAUCGGGUUUUUUUGGGAAAAAAAGGGAAAAAAAGGGAAAGUAUUAUGUUACGCCGUUCGGAUCUG` gave a log2 enrichment of -1.38.
`UGGCCCUGGUGGCAUGCGGGGAGGAAGAGGUGGCCUCAUGGAUCGUGUUGGUCCCGGUGGAAUGUUCAGAGGUGGCCGUGGUGGAGACAG` gave a log2 enrichment of 0.0577.
With `ACCAUGCAGGUGGGCAUCUUUGGGAAGUGAGGCAAGGGGGGGAUAGGGAGGGGGGUAACACUUUGGGAACAGGUGGUCCCAGGUCGUUUC` the log2 enrichment was 1.75.
